Measurements collected from several papers.
± marks the error that the study gave.
Sequence of UniProt Q5S007 (whole entry, looked up): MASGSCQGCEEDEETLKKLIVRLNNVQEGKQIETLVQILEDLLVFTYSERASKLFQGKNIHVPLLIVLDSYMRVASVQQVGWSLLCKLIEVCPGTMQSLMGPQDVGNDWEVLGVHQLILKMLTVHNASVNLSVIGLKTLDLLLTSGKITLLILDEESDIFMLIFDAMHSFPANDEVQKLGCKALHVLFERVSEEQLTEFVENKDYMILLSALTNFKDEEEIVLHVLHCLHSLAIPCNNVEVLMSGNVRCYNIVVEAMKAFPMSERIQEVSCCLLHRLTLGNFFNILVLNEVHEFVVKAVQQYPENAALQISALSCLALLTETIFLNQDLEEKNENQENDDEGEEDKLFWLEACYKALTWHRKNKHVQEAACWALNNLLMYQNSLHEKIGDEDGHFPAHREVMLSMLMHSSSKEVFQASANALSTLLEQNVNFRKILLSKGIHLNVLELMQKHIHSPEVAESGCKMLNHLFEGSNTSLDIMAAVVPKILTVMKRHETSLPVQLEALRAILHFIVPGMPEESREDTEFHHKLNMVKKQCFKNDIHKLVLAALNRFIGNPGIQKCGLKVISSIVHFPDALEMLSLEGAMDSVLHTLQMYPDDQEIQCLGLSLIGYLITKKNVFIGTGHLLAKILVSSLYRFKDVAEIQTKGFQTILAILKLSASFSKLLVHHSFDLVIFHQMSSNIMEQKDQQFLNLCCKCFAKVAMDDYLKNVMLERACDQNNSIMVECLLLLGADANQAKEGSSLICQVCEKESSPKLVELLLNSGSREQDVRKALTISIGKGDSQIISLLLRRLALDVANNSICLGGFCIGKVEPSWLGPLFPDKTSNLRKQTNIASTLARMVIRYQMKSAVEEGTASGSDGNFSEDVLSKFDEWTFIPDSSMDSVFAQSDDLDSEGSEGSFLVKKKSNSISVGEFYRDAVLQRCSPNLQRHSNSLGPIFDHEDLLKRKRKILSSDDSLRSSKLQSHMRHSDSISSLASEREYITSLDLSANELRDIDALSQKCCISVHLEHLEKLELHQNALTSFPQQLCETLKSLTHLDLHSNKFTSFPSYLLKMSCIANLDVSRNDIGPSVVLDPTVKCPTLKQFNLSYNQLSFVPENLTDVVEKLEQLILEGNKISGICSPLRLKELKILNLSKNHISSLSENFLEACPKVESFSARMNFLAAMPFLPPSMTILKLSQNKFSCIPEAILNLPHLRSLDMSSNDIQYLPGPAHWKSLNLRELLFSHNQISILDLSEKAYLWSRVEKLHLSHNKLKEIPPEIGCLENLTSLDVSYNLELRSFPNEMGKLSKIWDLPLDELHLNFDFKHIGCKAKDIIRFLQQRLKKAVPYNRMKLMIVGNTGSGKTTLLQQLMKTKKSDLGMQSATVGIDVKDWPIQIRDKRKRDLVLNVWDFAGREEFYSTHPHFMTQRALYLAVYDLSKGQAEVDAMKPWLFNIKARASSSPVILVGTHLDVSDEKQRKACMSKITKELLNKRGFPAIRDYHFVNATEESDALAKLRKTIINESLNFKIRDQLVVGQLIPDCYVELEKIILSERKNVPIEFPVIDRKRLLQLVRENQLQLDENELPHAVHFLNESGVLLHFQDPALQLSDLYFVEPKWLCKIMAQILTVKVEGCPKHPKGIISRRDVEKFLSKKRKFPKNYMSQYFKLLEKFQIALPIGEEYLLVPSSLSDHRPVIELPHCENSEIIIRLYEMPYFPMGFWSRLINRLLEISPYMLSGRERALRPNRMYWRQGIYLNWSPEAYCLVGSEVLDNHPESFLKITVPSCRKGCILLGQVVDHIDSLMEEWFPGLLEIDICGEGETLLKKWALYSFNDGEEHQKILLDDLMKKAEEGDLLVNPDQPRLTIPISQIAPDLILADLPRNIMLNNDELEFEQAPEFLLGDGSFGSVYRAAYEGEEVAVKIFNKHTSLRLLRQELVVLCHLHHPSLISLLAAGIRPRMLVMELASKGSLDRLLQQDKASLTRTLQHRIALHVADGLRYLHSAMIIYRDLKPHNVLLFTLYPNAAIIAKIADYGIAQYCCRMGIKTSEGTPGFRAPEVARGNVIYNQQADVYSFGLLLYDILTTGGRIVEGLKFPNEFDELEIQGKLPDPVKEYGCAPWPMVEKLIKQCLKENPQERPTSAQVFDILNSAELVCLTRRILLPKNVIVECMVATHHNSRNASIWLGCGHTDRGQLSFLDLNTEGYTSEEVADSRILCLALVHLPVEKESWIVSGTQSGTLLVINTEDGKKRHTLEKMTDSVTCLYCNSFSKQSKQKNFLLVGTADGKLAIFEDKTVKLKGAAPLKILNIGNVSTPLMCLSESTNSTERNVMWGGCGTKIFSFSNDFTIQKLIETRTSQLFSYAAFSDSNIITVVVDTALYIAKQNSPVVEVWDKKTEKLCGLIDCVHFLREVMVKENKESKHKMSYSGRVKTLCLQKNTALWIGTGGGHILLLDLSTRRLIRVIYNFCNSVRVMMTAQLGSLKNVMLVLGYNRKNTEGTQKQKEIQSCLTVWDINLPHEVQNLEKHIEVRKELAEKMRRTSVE
Sequence of UniProt O96028 (whole entry, looked up): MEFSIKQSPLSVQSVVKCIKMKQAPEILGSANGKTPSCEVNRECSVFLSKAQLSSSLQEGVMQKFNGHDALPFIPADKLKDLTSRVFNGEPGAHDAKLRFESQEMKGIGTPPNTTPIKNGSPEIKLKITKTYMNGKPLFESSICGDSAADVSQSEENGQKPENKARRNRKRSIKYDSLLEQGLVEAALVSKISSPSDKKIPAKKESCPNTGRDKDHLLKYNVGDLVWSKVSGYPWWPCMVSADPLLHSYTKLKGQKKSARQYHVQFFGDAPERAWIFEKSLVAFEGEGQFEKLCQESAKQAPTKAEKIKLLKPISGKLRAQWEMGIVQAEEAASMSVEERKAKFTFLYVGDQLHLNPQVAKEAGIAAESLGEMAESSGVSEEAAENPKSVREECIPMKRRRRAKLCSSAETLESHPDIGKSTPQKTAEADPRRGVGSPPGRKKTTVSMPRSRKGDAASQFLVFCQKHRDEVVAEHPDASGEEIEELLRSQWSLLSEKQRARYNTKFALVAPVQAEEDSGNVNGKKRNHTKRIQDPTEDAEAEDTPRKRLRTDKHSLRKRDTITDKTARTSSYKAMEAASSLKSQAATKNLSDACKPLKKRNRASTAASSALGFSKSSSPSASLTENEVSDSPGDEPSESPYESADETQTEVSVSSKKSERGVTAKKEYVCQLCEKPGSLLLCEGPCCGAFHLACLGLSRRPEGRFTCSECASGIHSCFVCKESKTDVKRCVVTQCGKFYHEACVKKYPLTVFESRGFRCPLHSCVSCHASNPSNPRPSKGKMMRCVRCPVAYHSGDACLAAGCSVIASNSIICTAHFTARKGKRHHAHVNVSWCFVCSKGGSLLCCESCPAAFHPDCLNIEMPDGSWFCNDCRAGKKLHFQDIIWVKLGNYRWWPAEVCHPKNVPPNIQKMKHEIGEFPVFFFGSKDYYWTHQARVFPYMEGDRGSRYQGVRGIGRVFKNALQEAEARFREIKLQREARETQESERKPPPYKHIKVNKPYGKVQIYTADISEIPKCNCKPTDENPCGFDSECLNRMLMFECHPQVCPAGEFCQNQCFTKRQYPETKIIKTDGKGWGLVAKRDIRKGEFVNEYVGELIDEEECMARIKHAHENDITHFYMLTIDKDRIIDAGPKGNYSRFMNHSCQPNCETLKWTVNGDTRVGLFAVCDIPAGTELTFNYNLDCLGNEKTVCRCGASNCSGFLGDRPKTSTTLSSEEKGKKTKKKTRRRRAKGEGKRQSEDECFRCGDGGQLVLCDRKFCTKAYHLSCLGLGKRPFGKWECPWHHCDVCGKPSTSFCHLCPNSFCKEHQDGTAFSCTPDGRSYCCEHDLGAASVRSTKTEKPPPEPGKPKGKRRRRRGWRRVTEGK
Sequence of UniProt P81908 (whole entry, looked up): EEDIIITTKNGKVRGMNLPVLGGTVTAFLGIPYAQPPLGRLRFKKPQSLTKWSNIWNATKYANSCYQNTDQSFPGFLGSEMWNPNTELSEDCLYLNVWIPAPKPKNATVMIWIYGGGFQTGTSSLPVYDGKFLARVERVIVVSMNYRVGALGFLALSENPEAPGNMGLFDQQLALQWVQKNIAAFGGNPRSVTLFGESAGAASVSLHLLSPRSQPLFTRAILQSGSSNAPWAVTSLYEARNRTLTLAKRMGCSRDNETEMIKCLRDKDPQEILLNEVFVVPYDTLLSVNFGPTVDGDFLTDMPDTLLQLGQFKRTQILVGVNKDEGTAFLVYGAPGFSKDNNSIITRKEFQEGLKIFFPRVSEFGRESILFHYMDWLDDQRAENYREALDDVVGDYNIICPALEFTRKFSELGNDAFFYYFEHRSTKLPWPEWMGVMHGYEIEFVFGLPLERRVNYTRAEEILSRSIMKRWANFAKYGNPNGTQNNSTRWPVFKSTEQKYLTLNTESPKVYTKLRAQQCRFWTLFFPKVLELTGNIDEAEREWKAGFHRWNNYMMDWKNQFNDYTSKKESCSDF
Sequence of UniProt P48546 (whole entry, looked up): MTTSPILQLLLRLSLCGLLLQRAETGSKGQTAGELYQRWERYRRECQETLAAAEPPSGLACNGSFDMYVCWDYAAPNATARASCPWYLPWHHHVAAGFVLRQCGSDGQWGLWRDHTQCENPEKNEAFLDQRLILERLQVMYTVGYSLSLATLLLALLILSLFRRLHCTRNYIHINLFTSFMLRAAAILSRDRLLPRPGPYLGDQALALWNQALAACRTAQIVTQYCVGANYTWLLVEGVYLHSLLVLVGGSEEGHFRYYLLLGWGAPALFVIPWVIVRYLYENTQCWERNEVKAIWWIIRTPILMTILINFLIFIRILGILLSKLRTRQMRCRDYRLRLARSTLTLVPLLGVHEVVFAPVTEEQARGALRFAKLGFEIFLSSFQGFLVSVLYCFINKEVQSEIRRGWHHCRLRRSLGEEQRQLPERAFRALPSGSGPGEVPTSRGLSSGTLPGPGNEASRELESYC
Sequence of UniProt P39877 (whole entry, looked up): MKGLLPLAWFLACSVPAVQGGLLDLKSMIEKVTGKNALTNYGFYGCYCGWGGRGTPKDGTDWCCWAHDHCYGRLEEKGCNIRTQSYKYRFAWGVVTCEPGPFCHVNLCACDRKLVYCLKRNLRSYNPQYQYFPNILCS

Compound | target | test | system | setting | IC50 [nM]
CC(C)NP(=O)(NC(C)C)OP(=O)(NC(C)C)NC(C)C | Bche (Rattus norvegicus, UniProt Q9JKC1) | enzyme activity, inhibitor, radiometric | rat, aging, cortex homogenate | 15 min, 37 °C | 2000
O=C(NCCCCn1ccc2ccc(F)cc21)Oc1ccccc1 | Cholinesterase (BCHE, Equus caballus, UniProt P81908) | enzyme activity, inhibitor, HPLC |  |  | 7300
N#CCCc1ccc2c(c1)-c1[nH]c3ccc([N+](=O)[O-])cc3c1CC(=O)N2 | GSK3, short isoform (Trypanosoma brucei, UniProt Q388M1) | enzyme activity, inhibitor |  | 90 min, 30 °C, together with: ATP 2 µM | 1050
CN1C(=O)[C@]23SS[C@@]1(C)C(=O)N2[C@H]1Nc2ccccc2[C@@]1([C@@]12c4ccccc4N[C@@H]1N1C(=O)[C@@]4(C)SS[C@]1(C(=O)N4C)[C@H]2O)[C@@H]3O | NSD2 (Homo sapiens, UniProt O96028) | enzyme activity, inhibitor, radiometric |  |  | 4130
CC[C@H](C)[C@H](NC(=O)[C@H](CO)NC(=O)[C@H](Cc1ccc(O)cc1)NC(=O)[C@H](CC(=O)O)NC(=O)[C@H](CO)NC(=O)[C@@H](NC(=O)[C@@H](O)Cc1ccccc1)[C@@H](C)CC)C(=O)N[C@@H](C)C(=O)N[C@@H](CC(C)C)C(=O)N[C@@H](CC(=O)O)C(=O)N[C@@H](CCCCN)C(=O)N[C@H](C(=O)N[C@@H](CCCNC(=N)N)C(=O)N[C@@H](CCC(N)=O)C(=O)N[C@@H](CCC(N)=O)C(=O)N[C@@H](CCC(=O)O)C(=O)N[C@@H](Cc1ccccc1)C(=O)N[C@H](C(=O)N[C@@H](CC(N)=O)C(=O)N[C@@H](Cc1c[nH]c2ccccc12)C(=O)N[C@@H](CC(C)C)C(=O)N[C@@H](CC(C)C)C(=O)N[C@@H](C)C(=O)N[C@@H](CCC(N)=O)C(=O)N[C@@H](CCCCN)C(=O)NCC(=O)O)C(C)C)[C@@H](C)CC | GIPR (Homo sapiens, UniProt P48546) | cAMP production, antagonist | BHK | 3 h, 37 °C, together with: GIP 50 pM | 48.7
C[C@H]1C[C@H]2[C@@H]3CCC4=CC(=O)C=C[C@]4(C)[C@@]3(Cl)[C@@H](O)C[C@]2(C)[C@@]1(O)C(=O)CO | EGFR (Homo sapiens, UniProt P00533) | kinase activity, ADP luminescence |  | together with: 200 µM ATP | > 10000
C[C@]12O[C@H](C[C@]1(O)C(=O)O)n1c3ccccc3c3c4c(c5c6ccccc6n2c5c31)CNC4=O | LRRK2 (Homo sapiens, UniProt Q5S007) | LRRKtide phosphorylation, inhibitor |  | 25 °C, together with: 1 µM ATP | ~50
CCc1c(C(=O)C(N)=O)c2c(OCC(=O)O)cccc2n1Cc1ccccc1 | PLA2G5 (Homo sapiens, UniProt P39877) | enzyme activity, LC-MS mixed micelle, measured: lysophosphatidylglycerol |  | together with: PAPG substrate | 2140
CC(=O)OO | Helix pomatia β-glucuronidase | enzyme activity |  | 1 h, pH 7.0, 37 °C, together with: p-nitrophenyl glucuronide | 23300 ± 820
CN(Cc1ccc2c(c1)C[C@H](CN=C(N)N)[C@H]2NC(=O)C(=O)Nc1ccc(Cl)c(F)c1)C(=N)N | HIV-1 BG505 SOSIP.664 | inhibitor, competition ELISA |  | 10% DMSO | 2020 ± 780

Some of these lines once more:
Compound | target | test | system | setting | IC50 [nM]
CN1C(=O)[C@]23SS[C@@]1(C)C(=O)N2[C@H]1Nc2ccccc2[C@@]1([C@@]12c4ccccc4N[C@@H]1N1C(=O)[C@@]4(C)SS[C@]1(C(=O)N4C)[C@H]2O)[C@@H]3O | NSD2 (Homo sapiens, UniProt O96028) | enzyme activity, inhibitor, radiometric |  |  | 4130
